Assay results collected from several papers.
Compare with care: the assays were run in different laboratories.
RPS6KA4 N-terminal kinase domain: Ribosomal protein S6 kinase alpha-4, N-terminal kinase domain (RPS6KA4, Homo sapiens, UniProt O75676)
RPS6KA4 C-terminal kinase domain: Ribosomal protein S6 kinase alpha-4, C-terminal kinase domain (RPS6KA4, Homo sapiens, UniProt O75676)

SMILES = Nc1ncc2c(n1)-c1c([nH]c3ccc(C4=CCOCC4)cc13)CCC2; target = RPS6KA4 N-terminal kinase domain; test = binding, competition with immobilised ligand; conditions = 1 µM; remaining binding = 100%
SMILES = CNC1C[S+]2CC[S+]3CC[S+](C1)[Ru-4]321([N]=C=S)[n]2c3ccc(OC)cc3c3c4c(c5cc(F)c[n+]1c5c32)C(=O)NC4=O (stereo not drawn); target = RPS6KA4 C-terminal kinase domain; test = KinomeScan; conditions = 0.1 µM; how to read = reference: untreated; remaining binding = 7.2%
SMILES = C=CC(=O)N1CCCC(n2c(=O)c3ncccc3n(Cc3ccc(Oc4ccccc4)cc3)c2=O)C1 (stereo not drawn); target = RPS6KA4 C-terminal kinase domain; test = binding, competition with immobilised ligand; conditions = 1 µM; remaining binding = 80%
SMILES = Cc1cnc2nc1Nc1cccc(c1)COC/C=C/COCc1cc(ccc1OCCN1CCOCC1)N2; target = RPS6KA4 N-terminal kinase domain; test = binding, competition with immobilised ligand; conditions = 0.1 µM; remaining binding = 88%
SMILES = CCN1CCN(Cc2ccc(C(=O)Nc3ccc(C)c(NCc4cnc5[nH]ccc5c4OC)c3)cc2C(F)(F)F)CC1; target = RPS6KA4 C-terminal kinase domain; test = binding, competition with immobilised ligand; conditions = 1 µM; remaining binding = 78%
SMILES = COc1cc(Nc2nc(C)cc(-c3cnn4nc(OC)ccc34)n2)cc(C(F)(F)F)c1; target = RPS6KA4 N-terminal kinase domain; test = binding, competition with immobilised ligand; conditions = 1 µM; remaining binding = 96%
SMILES = COc1c(Cl)cccc1Nc1c(-c2ccncc2C#C[C@@]2(C)CCCN2C(=O)/C=C/CN(C)C)[nH]c2c1C(=O)NCC2; target = RPS6KA4 C-terminal kinase domain; test = binding, competition with immobilised ligand; conditions = 3 µM; remaining binding = 91%
SMILES = Cc1ccc(-c2c(/C=C(\C#N)C(=O)NC(C)C)n(CCCO)c3ncnc(N)c23)cc1; target = RPS6KA4 C-terminal kinase domain; test = binding, competition with immobilised ligand; conditions = 1 µM; remaining binding = 100%
SMILES = CC(C)=CC1OC(C)(C)C2C=C3C(=O)C(Cl)=CC(O)C3C3C(O)C4OC4C(=O)C132 (stereo not drawn); target = RPS6KA4 C-terminal kinase domain; test = binder, KINOMEscan competition binding; conditions = 10 µM; how to read = reference: DMSO control; remaining binding = 64%
SMILES = CNC(=O)C1CCN(c2cc(C)c(F)cc2NC(=O)c2ccc(-c3cc(O)ccc3C)c(C)c2)CC1; target = RPS6KA4 N-terminal kinase domain; test = binding, competition with immobilised ligand; conditions = 1 µM; remaining binding = 97%
SMILES = COc1cc(Nc2nccc(-c3cnn4nc(OC)ccc34)n2)cc(C(F)(F)F)c1; target = RPS6KA4 N-terminal kinase domain; test = binding, competition with immobilised ligand; conditions = 1 µM; remaining binding = 100%
SMILES = Cc1c[nH]c2nccc(-c3ccc(C(=O)N[C@@H]4c5c(F)cc(C(F)F)cc5C[C@@H]4O)cn3)c12; target = RPS6KA4 C-terminal kinase domain; test = binding, competition with immobilised ligand; conditions = 3 µM; remaining binding = 61%

Repeated from above:
SMILES = CC(C)=CC1OC(C)(C)C2C=C3C(=O)C(Cl)=CC(O)C3C3C(O)C4OC4C(=O)C132 (stereo not drawn); target = RPS6KA4 C-terminal kinase domain; test = binder, KINOMEscan competition binding; conditions = 10 µM; how to read = reference: DMSO control; remaining binding = 64%
